Assay results gathered from unrelated publications.
Lines come from different studies, so protocols differ. Several values in a cell are separate wells, animals, samples, runs or records. Numbers after ± are the reported error.
Sequence of UniProt Q7KZI7 (whole entry, looked up): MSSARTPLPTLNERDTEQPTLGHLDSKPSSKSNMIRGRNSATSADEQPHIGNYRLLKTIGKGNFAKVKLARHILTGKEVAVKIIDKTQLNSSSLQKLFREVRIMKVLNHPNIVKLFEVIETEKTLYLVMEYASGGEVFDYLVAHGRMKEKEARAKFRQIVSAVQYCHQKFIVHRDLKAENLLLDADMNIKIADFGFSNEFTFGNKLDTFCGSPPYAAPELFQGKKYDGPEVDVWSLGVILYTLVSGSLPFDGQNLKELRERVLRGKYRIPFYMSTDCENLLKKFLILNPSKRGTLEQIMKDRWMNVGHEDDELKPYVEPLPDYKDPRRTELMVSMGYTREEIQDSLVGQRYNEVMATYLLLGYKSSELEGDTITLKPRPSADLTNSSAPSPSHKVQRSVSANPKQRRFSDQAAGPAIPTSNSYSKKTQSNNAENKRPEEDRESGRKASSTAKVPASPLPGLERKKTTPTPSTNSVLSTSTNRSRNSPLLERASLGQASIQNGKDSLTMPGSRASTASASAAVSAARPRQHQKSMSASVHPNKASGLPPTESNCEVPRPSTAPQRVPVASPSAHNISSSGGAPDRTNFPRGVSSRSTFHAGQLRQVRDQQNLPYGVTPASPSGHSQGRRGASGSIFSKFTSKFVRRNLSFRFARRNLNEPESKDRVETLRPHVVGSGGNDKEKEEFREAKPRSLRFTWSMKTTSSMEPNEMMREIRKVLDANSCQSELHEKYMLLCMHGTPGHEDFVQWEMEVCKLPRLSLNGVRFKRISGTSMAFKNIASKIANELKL

`CN1CCC[C@]1(C)/C=C/S(=O)(=O)NC(=O)Nc1c2c(cc3c1CCC3)CCC2` gave an IL-18 inhibition of 133% (human, whole blood ex vivo; 100 mg single dose, 24 h, single ascending dose, together with: LPS and ATP).
The tumour volume of `COC(=O)C1CN1S(=O)(=O)c1ccc2cc(C)ccc2c1` (stereo not drawn) is reported as 600 mm3 (mouse, Lewis lung carcinoma; ip, 100 mg/kg, 288 h).
Under “log2 fold change”, `CN1CCCNC(=O)c2cccc(c2)C(=O)NCCCN(C)CCCNc2cccc3c2C(=O)c2cccc(c2C3=O)NCCC1` is recorded as 0.282 (SAS; RNA-Seq, item: HNRNPD mRNA; 1 µM, 6 h; baseline: untreated cells).
`Cc1nn(-c2cccc(N)c2)c(=O)c2cnc(Nc3ccc(N4CCNCC4)cc3)nc12` has an IC50 of > 10 µM (Serine/threonine-protein kinase MARK2 (MARK2, Homo sapiens, UniProt Q7KZI7); enzyme activity, inhibitor).
With `COc1ccccc1-c1ccncc1C(=O)Nc1nnc(OCc2ccc(Cl)cc2)s1` the colony count was 66 and 57 and 96 and 43 and 68 and 95 (Brca1 Δ11/Δ11 Polq-/- MEFs, mouse; 1.25 µM).
The normalised absorbance of `CCOC(=O)NN` is reported as 0.849 (hydrazine ligation kinetics, absorbance; concentration not given, 50 s, together with: 2-formylphenylboronic acid).
Under “third-quartile larval motion”, `Cc1cc(C)cc(NC(=O)CCN2CCCCCC2)c1` is recorded as 8.3 ± 1.9 pixels/frame (locomotor activity in dark; Danio rerio larvae, 7 dpf, well of 10 larvae; 10 µM, minute 7, dark).
`CCOCc1ccc(O[C@@H]2O[C@@H](C)[C@H](O)[C@@H](O)[C@H]2O)cc1` gave a radical scavenging of 5.06 ± 1.6% (DPPH radical; 300 µg/mL).
`Cc1cccc(C)c1CNc1cc(C(=O)N2CCC2)cn2c(C)c(C)nc12` has an inhibition of 100% (histamine-stimulated acid secretion; dog, Heidenhain pouch; oral, 5 mg/kg, 1 h, 9 h after dosing).
`CC(C)=CCc1cc(C(=O)/C=C/c2ccc(O)cc2)c(O)cc1O` gave a Km of 17.2 ± 2.92 µM (phase I metabolism, substrate; rat liver microsomes).
For `CC[C@H](C)[C@@H](C(=O)N[C@@H](CC(C)C)C(=O)N[C@@H](CO)C(=O)N[C@@H](CO)C(=O)N[C@H](C(=O)N[C@@H](CCC(=O)O)C(=O)N[C@H](C(=O)NCC(=O)N[C@@H](CO)C(=O)N[C@@H](CCCN)C(=O)N[C@H](C(=O)N1C[C@H](O)C[C@H]1C(N)=O)[C@@H](C)O)C(C)C)[C@@H](C)O)N(C)C(=O)[C@H](C)NC(=O)CN(C)C(=O)[C@H](Cc1ccccc1)NC(=O)[C@H](CO)NC(=O)[C@H](CO)NC(=O)[C@H](CCCNC(=N)N)NC(=O)[C@@H](NC(=O)[C@H](CC(C)C)NC(=O)[C@H](Cc1ccccc1)NC(=O)[C@H](Cc1c[nH]cn1)NC(=O)[C@H](C)NC(=O)[C@H](CC(C)C)NC(=O)[C@H](CCCNC(=N)N)NC(=O)[C@H](CCC(=O)O)NC(=O)[C@@H](NC(=O)[C@H](C)NC(=O)[C@@H]1CSSC[C@H](NC(=O)[C@H](CCCNC(=N)N)NC(=O)CC[C@H](NC(=O)CCCCCCCCCCCCCCCCCCC(=O)O)C(=O)O)C(=O)NCC(=O)N[C@@H]([C@@H](C)O)C(=O)N[C@@H](C)C(=O)N[C@@H]([C@@H](C)O)C(=O)N1)[C@@H](C)O)[C@@H](C)O`, “body weight loss” read 7.2 ± 0.6% (male Sprague-Dawley rats; subcutaneous, 30 nmol/kg single dose, 96 h).
For `O=C(CCCCCCc1ccccc1)c1ncc(-c2ccc(CBr)cn2)o1`, “lipid amide levels” read “increased” (item: AEA, OEA, PEA; mouse, brain and liver; i.p., 30 mg/kg, 1 and 3 h).
`C=CC(=O)Nc1cccc(Cn2ncc3cnc(Nc4cnn(CCOC)c4)nc32)c1` — result for “percent of control”: 3.3% (PIP5K1A human; binding, KINOMEscan; 100 nM; lower = stronger binding).
With `Nc1ncc(-c2cc(-c3cnn(CC(F)(F)F)c3)ncc2F)nc1C(=O)NC1CNCC(F)C1` (stereo not drawn) the remaining binding was 72% (RIPK5; KINOMEscan; 1 µM; baseline: DMSO control).
For `CC[C@H](C)[C@@H](C(=O)N[C@@H](CC(C)C)C(=O)N[C@@H](CO)C(=O)N[C@@H](CO)C(=O)N[C@H](C(=O)N[C@@H](CCC(=O)O)C(=O)N[C@H](C(=O)NCC(=O)N[C@@H](CO)C(=O)N[C@@H](CC(N)=O)C(=O)N[C@H](C(=O)N1CCC[C@H]1C(N)=O)[C@@H](C)O)C(C)C)[C@@H](C)O)N(C)C(=O)[C@H](C)NC(=O)CN(C)C(=O)[C@H](Cc1ccccc1)NC(=O)[C@H](CO)NC(=O)[C@H](CO)NC(=O)[C@H](CCCNC(=N)N)NC(=O)[C@H](Cc1c[nH]cn1)NC(=O)[C@H](CC(C)C)NC(=O)[C@H](Cc1ccccc1)NC(=O)[C@H](Cc1c[nH]cn1)NC(=O)[C@H](C)NC(=O)[C@H](CC(C)C)NC(=O)[C@H](CCCNC(=N)N)NC(=O)[C@H](CCC(=O)O)NC(=O)[C@@H](NC(=O)[C@H](C)NC(=O)[C@@H]1CSSC[C@H](NC(=O)[C@H](CCCNC(=N)N)NC(=O)CC[C@H](NC(=O)CCCCCCCCCCCCCCCCCCC(=O)O)C(=O)O)C(=O)NCC(=O)N[C@@H]([C@@H](C)O)C(=O)N[C@@H](C)C(=O)N[C@@H]([C@@H](C)O)C(=O)N1)[C@@H](C)O`, “body weight loss” read 6.7 ± 0.4% (male Sprague-Dawley rats; subcutaneous, 30 nmol/kg single dose, 96 h).
`Cc1cc(NC(=O)CCN2CCCCC2)ccc1Br`: “third-quartile larval motion” 1.7 ± 0.6 pixels/frame (locomotor activity in dark; Danio rerio larvae, 7 dpf, well of 10 larvae; 10 µM, minute 7, dark).
`c1ccc(CN2Cc3cccc(n3)CN(Cc3ccccn3)Cc3cccc(n3)C2)nc1`: “transmetallation rate constant” 0.0017 s⁻¹ (HPLC; water; 25 °C, Mn complex dissociation, together with: 25 equiv Zn2+).
For `Cc1ccc(C)c(OCC(O)CN2CCN(c3cc(Cl)ccc3C)CC2)c1` (stereo not drawn), “third-quartile larval motion” read 0.2 ± 0.2 pixels/frame (locomotor activity in dark; Danio rerio larvae, 7 dpf, well of 10 larvae; 10 µM, minute 1, dark).
`COc1ccc(C(=O)CCc2cc(C(CCc3ccc(O)cc3OC)c3ccc(O)cc3)c(O)cc2OC)cc1` (racemic) has an amount of 220 ± 77 pg/mL blood (item: 12-HEPE; human whole blood; 0.3 µM, together with: A23187).
For `O=C(NCC1OC2CCC=CCCC2O1)c1ccc(F)nc1` (stereo not drawn), “observed rate constant kobs” read 10.76 ± 0.0249 s⁻¹ (IEDDA cycloaddition, substrate, stopped-flow spectrophotometry; water/methanol 45:55; 1 mM, 298 K, together with: methyltetrazine-NHS 0.05 mM).
For `COC1CN([C@H]2CC[C@H]([C@@]3(C)Oc4c(Cl)cc(C(=O)NCc5c(SC)cc(C)[nH]c5=O)c(C)c4O3)CC2)C1`, “log2 fold change” read 1.42 (RNA-seq, item: ERRFI1; human, whole blood; dose not given, 24 h; baseline: pretreatment baseline).
`CCC(=O)N[C@@H](C)C(=O)OCC(=O)N[C@@H](C)C(=O)O`: “chain scission rate constant” 0.0012 h⁻¹ (water; pH 5, 37 °C).
`COCCNCCOc1cc(C)cc(C(C)C)c1` — result for “third-quartile larval motion”: 7.3 ± 0.8 pixels/frame (locomotor activity in dark; Danio rerio larvae, 7 dpf, well of 10 larvae; 10 µM, minute 1, dark).
Under glucagon level, `CC(C)C[C@H](NC(=O)CNC(=O)[C@H](CCC(N)=O)NC(=O)[C@H](CC(C)C)NC(=O)[C@H](CC(C)C)NC(=O)[C@H](CCCNC(=N)N)NC(=O)[C@H](CCC(N)=O)NC(=O)[C@H](CC(C)C)NC(=O)[C@H](CCCNC(=N)N)NC(=O)[C@H](C)NC(=O)CNC(=O)[C@H](CCC(=O)O)NC(=O)[C@H](CCCNC(=N)N)NC(=O)[C@H](CC(C)C)NC(=O)[C@H](CCCNC(=N)N)NC(=O)[C@H](CO)NC(=O)[C@H](CC(C)C)NC(=O)[C@H](CCC(=O)O)NC(=O)[C@H](CO)NC(=O)[C@@H](NC(=O)[C@H](Cc1ccccc1)NC(=O)[C@@H](NC(=O)CNC(=O)[C@H](CC(=O)O)NC(=O)C(C)(C)NC(=O)[C@@H](N)Cc1c[nH]cn1)[C@@H](C)O)[C@@H](C)O)C(=O)N[C@@H](CC(C)C)C(=O)N[C@@H](CCC(N)=O)C(=O)NCC(=O)N[C@@H](CC(C)C)C(=O)N[C@H](C(=O)NCC(=O)N[C@@H](CCCCNC(=O)COCCOCCNC(=O)COCCOCCNC(=O)CC[C@H](NC(=O)CCCCCCCCCCCCCCCCC(=O)O)C(=O)O)C(N)=O)C(C)C` is recorded as “increased” (NMRI mouse lean, plasma; subcutaneous, up to 300 nmol/kg, 2 h).
`COc1cc(O)ccc1CCC(c1ccc(O)cc1)c1cc2c(c(C)c1O)OC(c1ccc(O)cc1)CC2` (mixture of isomers) has an amount of 2220 ± 435 pg/mL blood (item: 5-HETE; human whole blood; 3 µM, together with: Escherichia coli).
The radical scavenging of `NC(=O)Cc1ccc(O)c(Cc2ccc(O)cc2)c1` is reported as 29.3 ± 1.86% (DPPH radical; 300 µg/mL).
`Oc1cc2c(cc1O)C(c1cccc3ccccc13)NCC2` (stereo not drawn) has an IC50 of 24.3 µM (DPPH scavenging, absorbance; 30 min, dark).
The lipid accumulation of `COc1ccc(CCc2cc(OC)c(O)c(OC)c2)cc1OC` is reported as 53.6 ± 4.22% (Oil Red O; 3T3-L1, mouse; 5 µM, day 8; baseline: vehicle).
For `Cc1cccc(NC(=O)CCN2CCN(C/C=C/c3ccccc3)CC2)c1`, “third-quartile larval motion” read 1 ± 0.4 pixels/frame (locomotor activity in dark; Danio rerio larvae, 7 dpf, well of 10 larvae; 10 µM, minute 5, dark).
`Cc1ncsc1-c1ccc(C(C)NC(=O)C2CC(O)CN2C(=O)C(NC(=O)CCCCCCCCCCN2CCCC(Nc3ncc(Cl)c(Nc4ccccc4S(=O)(=O)C(C)C)n3)C2)C(C)(C)C)cc1` (stereo not drawn): “log2 fold change” -1.52 (22Rv1; RNA-seq, item: ZNF280C mRNA; concentration not given; baseline: DMSO).
With `CC(CCC(=O)NCc1ccc(C(=O)NO)cc1)C1CCC2C3C(O)CC4CC(O)CCC4(C)C3CCC12C` (stereo not drawn) the relative abundance was 20.9% (item: Glyco-conj; PCK rat (Pkhd1 mutant), liver; oral gavage, dose not given, 5 months; baseline: total bile acids).
`NNC(=O)Cc1ccccc1` has a normalised absorbance of 0.657 (hydrazine ligation kinetics, absorbance; concentration not given, 30 s, together with: 2-formylphenylboronic acid).
`COc1cnc2cccc(N3CCc4c(cc(Cn5ccnc5)cc4-c4cn(C)nc4C(F)(F)F)C3=O)c2c1` has a tumour volume of 200 mm3 and 77 mm3 and 178 mm3 and 135 mm3 and 106 mm3 and 167 mm3 (BALB/c nude mice, MV4-11 xenograft; intraperitoneal, 100 mg/kg, day 24).
`COc1ccc(NC(=O)c2ccc3[nH]c(-c4ccc(N(C)C)cc4)nc3c2)cn1` has a tumour volume of 563 mm3 and 542 mm3 and 367 mm3 and 506 mm3 (Lewis lung carcinoma, mice, syngeneic graft, subcutaneous; intraperitoneal, 25 mg/kg daily, day 7).
For `CCCCCCCCCCCCCCCC(=O)OCC(CSC[C@H](N)C(=O)N[C@@H](CO)C(=O)N[C@@H](CCCCN)C(=O)N[C@@H](CCCCN)C(=O)N[C@@H](CCCCN)C(=O)N[C@@H](CCCCN)C(=O)NCCCCCC(=O)N[C@@H](CCCCN)C(=O)N[C@@H](CC(C)C)C(=O)N[C@H](C(=O)N[C@@H](Cc1ccccc1)C(=O)N[C@@H](Cc1ccccc1)C(=O)N[C@@H](Cc1ccc2ccccc2c1)C(=O)O)C(C)C)OC(=O)CCCCCCCCCCCCCCC` (stereo partly drawn), the Iba1-positive area was 33.9% and 35% and 37.3% (APP/PS1 transgenic mouse, cortex; intracortical injection, dose not given).
`CC(=O)[O-].O.O.O.O.[Mn+2].[O-]c1ccc(Br)cc1C=NCCN1CCOCC1` gave an inhibition of 10.8% (nitric oxide scavenging; 40 µM).
With `Cc1ccc(S(=O)(=O)NN)cc1` the normalised absorbance was 0.886 (hydrazine ligation kinetics, absorbance; concentration not given, 45 s, together with: 2-formylphenylboronic acid).
With `CNS(=O)(=O)Nc1nccc(Cc2c(C)c3ccc(Oc4ncccc4F)cc3oc2=O)c1F` the IC50 was > 1 µM (Loucy; cell viability, CellTiter-Glo; 7 days).
Under “third-quartile larval motion”, `Cc1ccc(NC(=O)CCN2CCCCCC2)cc1C` is recorded as 1.3 ± 0.4 pixels/frame (locomotor activity in dark; Danio rerio larvae, 7 dpf, well of 10 larvae; 10 µM, minute 1, dark).
